Published values of several laboratories.
Compare with care: the assays were run in different laboratories. Values joined by “and” are separate records of one study, mostly repeats; a detail may differ. ± gives the spread as reported.
CYP2A6: Cytochrome P450 2A6 (CYP2A6, Homo sapiens, UniProt P11509)
Sequence of UniProt P11509 (whole entry, looked up): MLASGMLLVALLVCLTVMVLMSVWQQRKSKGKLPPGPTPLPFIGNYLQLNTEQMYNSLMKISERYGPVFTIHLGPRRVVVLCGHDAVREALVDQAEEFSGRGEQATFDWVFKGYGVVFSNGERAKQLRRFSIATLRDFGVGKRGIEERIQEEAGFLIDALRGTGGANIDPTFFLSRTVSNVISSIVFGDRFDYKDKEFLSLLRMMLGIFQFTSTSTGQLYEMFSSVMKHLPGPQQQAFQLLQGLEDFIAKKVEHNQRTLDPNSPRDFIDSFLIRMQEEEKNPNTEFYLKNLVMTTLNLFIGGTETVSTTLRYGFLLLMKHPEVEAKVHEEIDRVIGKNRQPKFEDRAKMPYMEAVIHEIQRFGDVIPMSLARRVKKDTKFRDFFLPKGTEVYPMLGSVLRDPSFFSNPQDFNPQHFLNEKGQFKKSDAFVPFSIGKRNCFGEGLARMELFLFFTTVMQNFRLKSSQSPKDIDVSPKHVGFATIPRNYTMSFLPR
USP20 ZnF-UBD domain: Ubiquitin carboxyl-terminal hydrolase 20, ZnF-UBD domain (USP20, Homo sapiens, UniProt Q9Y2K6)
Sequence of UniProt Q9Y2K6 (whole entry, looked up): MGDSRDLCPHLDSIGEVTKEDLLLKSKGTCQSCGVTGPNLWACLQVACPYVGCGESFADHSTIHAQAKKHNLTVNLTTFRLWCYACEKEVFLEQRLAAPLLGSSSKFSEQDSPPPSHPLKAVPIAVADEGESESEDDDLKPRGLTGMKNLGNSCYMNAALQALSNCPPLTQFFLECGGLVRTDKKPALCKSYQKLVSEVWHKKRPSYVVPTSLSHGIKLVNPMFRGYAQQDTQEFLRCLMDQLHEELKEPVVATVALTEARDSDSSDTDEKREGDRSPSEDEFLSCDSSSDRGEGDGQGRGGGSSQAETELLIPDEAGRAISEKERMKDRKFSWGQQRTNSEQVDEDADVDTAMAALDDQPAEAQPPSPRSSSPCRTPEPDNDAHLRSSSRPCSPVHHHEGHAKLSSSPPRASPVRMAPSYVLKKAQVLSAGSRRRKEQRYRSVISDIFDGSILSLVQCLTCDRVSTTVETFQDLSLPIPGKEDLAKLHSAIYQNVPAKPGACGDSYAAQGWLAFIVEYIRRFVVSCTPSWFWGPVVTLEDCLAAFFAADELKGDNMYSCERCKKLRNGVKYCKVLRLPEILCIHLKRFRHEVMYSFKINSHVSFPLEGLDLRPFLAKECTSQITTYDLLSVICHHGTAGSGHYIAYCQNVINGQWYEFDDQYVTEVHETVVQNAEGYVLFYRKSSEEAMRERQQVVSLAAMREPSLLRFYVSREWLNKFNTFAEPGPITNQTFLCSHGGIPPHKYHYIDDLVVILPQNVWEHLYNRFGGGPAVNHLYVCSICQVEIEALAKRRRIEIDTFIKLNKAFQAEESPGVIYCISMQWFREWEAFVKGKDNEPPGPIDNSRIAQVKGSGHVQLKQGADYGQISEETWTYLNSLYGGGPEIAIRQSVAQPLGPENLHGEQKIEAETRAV
USP49 ZnF-UBD domain: Ubiquitin carboxyl-terminal hydrolase 49, ZnF-UBD domain (USP49, Homo sapiens, UniProt Q70CQ1)
Sequence of UniProt Q70CQ1 (whole entry, looked up): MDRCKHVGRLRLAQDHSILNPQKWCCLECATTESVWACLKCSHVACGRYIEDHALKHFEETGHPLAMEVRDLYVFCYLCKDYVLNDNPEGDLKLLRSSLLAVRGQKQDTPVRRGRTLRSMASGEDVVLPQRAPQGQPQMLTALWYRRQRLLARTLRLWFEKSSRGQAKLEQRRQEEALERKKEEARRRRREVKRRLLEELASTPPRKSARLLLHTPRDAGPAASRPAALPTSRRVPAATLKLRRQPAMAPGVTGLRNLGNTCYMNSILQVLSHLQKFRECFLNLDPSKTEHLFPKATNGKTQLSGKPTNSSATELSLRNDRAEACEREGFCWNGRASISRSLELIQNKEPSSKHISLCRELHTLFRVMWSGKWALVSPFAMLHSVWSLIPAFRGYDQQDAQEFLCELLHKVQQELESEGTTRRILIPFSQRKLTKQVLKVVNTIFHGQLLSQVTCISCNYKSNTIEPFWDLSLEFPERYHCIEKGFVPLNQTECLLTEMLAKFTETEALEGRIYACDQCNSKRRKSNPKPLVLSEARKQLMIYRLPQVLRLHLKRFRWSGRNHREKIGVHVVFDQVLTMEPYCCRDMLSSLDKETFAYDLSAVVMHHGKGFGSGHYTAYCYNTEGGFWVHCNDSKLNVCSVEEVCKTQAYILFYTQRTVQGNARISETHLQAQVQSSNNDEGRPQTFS
CA1: Carbonic anhydrase 1 (CA1, Homo sapiens, UniProt P00915)
Sequence of UniProt P00915 (whole entry, looked up): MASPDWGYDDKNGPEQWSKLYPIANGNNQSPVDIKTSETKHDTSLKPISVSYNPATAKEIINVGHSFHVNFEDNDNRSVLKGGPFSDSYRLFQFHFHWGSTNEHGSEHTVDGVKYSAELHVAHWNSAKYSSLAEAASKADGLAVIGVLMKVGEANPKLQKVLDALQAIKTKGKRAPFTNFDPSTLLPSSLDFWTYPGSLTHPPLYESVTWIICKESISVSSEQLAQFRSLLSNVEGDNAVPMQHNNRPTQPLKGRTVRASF
Alpha-carbonic anhydrase: Alpha-carbonic anhydrase (Enterococcus faecium, UniProt Q3XYE8)
Sequence of UniProt Q16774 (whole entry, looked up): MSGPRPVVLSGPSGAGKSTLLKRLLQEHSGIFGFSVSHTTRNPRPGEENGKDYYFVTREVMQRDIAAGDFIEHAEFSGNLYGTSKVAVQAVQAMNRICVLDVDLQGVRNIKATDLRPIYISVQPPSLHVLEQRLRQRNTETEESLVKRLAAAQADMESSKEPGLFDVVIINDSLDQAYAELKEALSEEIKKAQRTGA
Sequence of UniProt P10721 (whole entry, looked up): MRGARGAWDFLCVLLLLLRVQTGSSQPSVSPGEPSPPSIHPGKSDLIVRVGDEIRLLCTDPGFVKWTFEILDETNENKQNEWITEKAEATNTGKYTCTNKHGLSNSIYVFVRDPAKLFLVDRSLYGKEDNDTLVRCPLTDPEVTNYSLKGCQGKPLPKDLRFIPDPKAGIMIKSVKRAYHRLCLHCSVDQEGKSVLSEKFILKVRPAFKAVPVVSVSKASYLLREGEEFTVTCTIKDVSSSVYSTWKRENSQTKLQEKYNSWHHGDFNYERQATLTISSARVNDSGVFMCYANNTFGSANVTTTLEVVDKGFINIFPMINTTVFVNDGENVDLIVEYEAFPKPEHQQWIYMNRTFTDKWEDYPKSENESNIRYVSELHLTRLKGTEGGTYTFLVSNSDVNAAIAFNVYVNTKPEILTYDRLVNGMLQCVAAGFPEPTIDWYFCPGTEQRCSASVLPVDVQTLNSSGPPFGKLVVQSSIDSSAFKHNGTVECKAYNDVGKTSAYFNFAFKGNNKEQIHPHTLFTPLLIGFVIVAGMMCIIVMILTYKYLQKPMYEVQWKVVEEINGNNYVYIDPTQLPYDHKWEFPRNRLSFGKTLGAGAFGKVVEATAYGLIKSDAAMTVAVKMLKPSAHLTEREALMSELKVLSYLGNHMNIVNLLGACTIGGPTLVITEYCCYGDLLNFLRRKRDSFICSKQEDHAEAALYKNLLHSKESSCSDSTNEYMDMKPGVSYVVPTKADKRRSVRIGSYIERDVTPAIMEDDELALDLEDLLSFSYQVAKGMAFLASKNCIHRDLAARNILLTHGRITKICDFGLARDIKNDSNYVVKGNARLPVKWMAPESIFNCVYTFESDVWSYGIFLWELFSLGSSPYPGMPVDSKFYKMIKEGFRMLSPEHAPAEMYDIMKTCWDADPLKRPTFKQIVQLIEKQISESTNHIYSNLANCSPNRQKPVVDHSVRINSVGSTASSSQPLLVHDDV
Sequence of UniProt P31641 (whole entry, unmodified, looked up): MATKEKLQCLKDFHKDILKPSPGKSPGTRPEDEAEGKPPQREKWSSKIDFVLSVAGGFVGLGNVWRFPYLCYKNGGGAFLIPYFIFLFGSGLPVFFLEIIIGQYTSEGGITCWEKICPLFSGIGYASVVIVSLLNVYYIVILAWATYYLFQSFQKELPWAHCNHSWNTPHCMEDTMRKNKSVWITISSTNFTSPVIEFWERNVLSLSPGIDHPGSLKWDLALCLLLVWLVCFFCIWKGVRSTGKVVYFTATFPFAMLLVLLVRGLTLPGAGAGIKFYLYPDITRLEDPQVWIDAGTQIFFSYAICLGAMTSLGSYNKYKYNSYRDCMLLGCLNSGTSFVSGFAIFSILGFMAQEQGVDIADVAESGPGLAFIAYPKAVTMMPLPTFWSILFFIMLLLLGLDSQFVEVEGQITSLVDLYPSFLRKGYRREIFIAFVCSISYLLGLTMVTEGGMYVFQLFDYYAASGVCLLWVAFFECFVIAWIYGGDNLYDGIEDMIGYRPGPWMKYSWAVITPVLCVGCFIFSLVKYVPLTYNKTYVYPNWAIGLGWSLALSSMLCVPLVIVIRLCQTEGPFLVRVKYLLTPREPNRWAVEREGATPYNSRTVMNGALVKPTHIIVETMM
Sequence of UniProt Q15208 (whole entry, looked up): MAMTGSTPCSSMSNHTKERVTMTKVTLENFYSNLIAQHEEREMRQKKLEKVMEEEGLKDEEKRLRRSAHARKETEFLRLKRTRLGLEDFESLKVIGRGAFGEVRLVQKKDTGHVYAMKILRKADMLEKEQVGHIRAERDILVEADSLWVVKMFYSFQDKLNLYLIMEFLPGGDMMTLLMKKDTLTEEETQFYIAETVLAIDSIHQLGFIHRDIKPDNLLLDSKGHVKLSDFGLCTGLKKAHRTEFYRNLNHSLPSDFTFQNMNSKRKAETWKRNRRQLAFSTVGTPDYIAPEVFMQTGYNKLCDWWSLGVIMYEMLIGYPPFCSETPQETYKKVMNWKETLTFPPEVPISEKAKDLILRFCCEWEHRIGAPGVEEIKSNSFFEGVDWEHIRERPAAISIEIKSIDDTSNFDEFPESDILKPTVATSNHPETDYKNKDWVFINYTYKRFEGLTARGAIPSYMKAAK

Nc1ncnc2c1ncn2[C@@H]1O[C@H](COP(=O)(O)OP(=O)(O)NP(=O)(O)O)[C@@H](O)[C@H]1O
Kd (Inositol-tetrakisphosphate 1-kinase (Homo sapiens, UniProt Q13572); binding): 3.1 ± 0.4 µM

OC(Cn1cncn1)(Cn1cncn1)c1ccc(F)cc1F
Kd (CYP2A6; binding; 20 min, pH 7.4, purified protein, 2% DMSO): 8.57 µM

O=C(O)CNc1ncccn1
Kd (USP20 ZnF-UBD domain): 574 µM

COC1(C2=NCCN2)COc2ccccc2O1 (stereo not shown)
Kd (alpha2-adrenoceptor, rat; saturation radioligand binding; rat cortex membranes; pH 7.4, room temperature): 0.00097 µM

[H]/N=C(/N)NCC(=O)O
Kd (SLC6A6 (Homo sapiens, UniProt P31641, F300A); microscale thermophoresis; F300A mutant): no binding

COc1cc(CNC(=O)CCCC/C=C/C(C)C)ccc1O
Kd (NF-κB (human)): 440 µM

Cn1ccnc1
Kd (CYP2A6; binding; 20 min, pH 7.4, purified protein, 2% DMSO): 189 µM

O=C(O)CCC(=O)c1cccs1
Kd (USP49 ZnF-UBD domain): > 1000 µM

Oc1cc2c(cc1O)[C@@H]1c3ccc(O)c(O)c3OC[C@]1(O)C2
Kd (Tyrosine-protein kinase SYK, tandem SH2 domains (SYK, Homo sapiens, UniProt P43405); tandem SH2 domain binding, bio-layer interferometry): 28.1 µM

Nc1nc(-c2ccc(Cl)c(S(N)(=O)=O)c2)cs1
Kd (CA1; thermal shift; pH 7.0, 25 °C): 5 µM

O=C(O)Cc1cccnc1
Kd (USP20 ZnF-UBD domain): 707 µM

C[C@H]1CCC[C@@H](C(=O)Nc2nnc(S(N)(=O)=O)s2)C1 (racemic)
Ki (Alpha-carbonic anhydrase; CO2 hydration, inhibitor, stopped-flow kinetics): 0.0493 µM

C=C1CCN([C@H](C)[C@](O)(Cn2cncn2)c2ccc(F)cc2F)CC1
Kd (CYP2A6; binding; 20 min, pH 7.4, purified protein, 2% DMSO): 113 µM

CCCCCCCCCCCCCCCCCC(=O)O
Kd (uncharacterized protein (Solanum lycopersicum, UniProt A0A3Q7EJP1); binding, tyrosine fluorescence quenching; Stern-Volmer approximation): 6.8 ± 0.1 µM

O=C(OCC1COC(Cn2ccnc2)(c2ccc(Cl)cc2Cl)O1)c1ccccc1 (stereo not shown)
Kd (CYP2A6; binding; 20 min, pH 7.4, purified protein, 2% DMSO): 9.13 µM

O=C(O)CCc1ccccc1OCc1ccccn1
Kd (Ubiquitin carboxyl-terminal hydrolase 39, ZnF-UBD domain (Homo sapiens, UniProt Q53GS9)): > 1000 µM

CC[C@@H]1[C@H](F)C(=O)N[C@@H]1COc1nccc2cc(C(N)=O)c(OC)cc12
IC50 (STK38 (Homo sapiens, UniProt Q15208); ATP-site probe binding, ActivX profiling; THP-1 cell lysate; Lys2 site): 0.35 µM

COc1cc2ncc(-c3ccccc3)nc2cc1OC
Kd (KIT (Homo sapiens, UniProt P10721); competition binding; 11-point threefold dilution): 0.027 µM

O=C(O)CN1Cc2ccccc2C1=O
Kd (USP20 ZnF-UBD domain): > 1000 µM

C=Cn1ccnc1
Kd (CYP2A6; binding; 20 min, pH 7.4, purified protein, 2% DMSO): 109 µM

C[C@H](Cc1ccccc1)Nc1ncnc2c1ncn2[C@@H]1O[C@H](CO)[C@@H](O)[C@H]1O
Kd (adenosine A1 receptor, sheep; competition binding; striatum membranes; high-affinity site, two-site model, together with: 0.009 nM [3H]DPCPX): 0.005 ± 0.002 µM

NS(=O)(=O)C(F)(F)F
Kd (CA1; urea denaturation shift, Trp fluorescence; 5 µM, pH 6.0): 0.163 µM

Nc1nc2c(ncn2[C@@H]2O[C@H](COP(=O)(O)O)[C@@H](O)[C@H]2O)c(=O)[nH]1
Kd (GUK1 (Homo sapiens, UniProt Q16774); ITC; pH 7.5, 20 mM HEPES, together with: 150 mM KCl): 7.3 µM and 6.7 µM

O=C(O)Cc1cccc2cccnc12
Kd (USP49 ZnF-UBD domain): > 1000 µM

NS(=O)(=O)c1nnc(NC(=O)Cc2ccccc2)s1
Ki (Alpha-carbonic anhydrase; CO2 hydration, inhibitor, stopped-flow kinetics): 0.0594 µM

Excerpt of the above:
Nc1nc(-c2ccc(Cl)c(S(N)(=O)=O)c2)cs1
Kd (CA1; thermal shift; pH 7.0, 25 °C): 5 µM

COc1cc(CNC(=O)CCCC/C=C/C(C)C)ccc1O
Kd (NF-κB (human)): 440 µM

O=C(O)Cc1cccnc1
Kd (USP20 ZnF-UBD domain): 707 µM

C=Cn1ccnc1
Kd (CYP2A6; binding; 20 min, pH 7.4, purified protein, 2% DMSO): 109 µM
